# Results from different studies.
# Every numbered part comes from another study and shows a few of its results, in no order. Positions count from the first letter of the parent shown.

# Block 1
# Target: ABI1, truncated, D143A, DHFR fusion (Arabidopsis thaliana)
# Method: DHFR PCA, deep sequencing
# Medium: yeast
# Notes: methotrexate growth selection, single substitutions
# Added: (+)-ABA 17 µM
# Reference: wild-type fitted maximum
# Direction: higher = stronger binding
# Starting sequence: PYL1, truncated, DHFR fusion (Arabidopsis thaliana); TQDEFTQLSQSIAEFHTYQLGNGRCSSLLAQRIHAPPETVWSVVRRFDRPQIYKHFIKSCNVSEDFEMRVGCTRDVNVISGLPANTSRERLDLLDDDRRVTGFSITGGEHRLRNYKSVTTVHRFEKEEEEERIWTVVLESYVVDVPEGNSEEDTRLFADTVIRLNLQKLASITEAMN
Substitution,relative binding score [%]
E125T,84.6
K116W,2.58
G23P,22.4
N61E,89.1
A170L,19.4
N77I,86.9
R155M,69.2
H34Q,79.3
H110G,10.5
D144L,4.95
V44P,-6.32
I33L,2.8
F5Y,74.3
S42D,78.4

# Block 2
# Target: RING finger protein unkempt homolog, zinc fingers 1-6, SBP tag (UNK, Homo sapiens, UniProt Q9C0B0, residues 30-357)
# Sequence of UniProt Q9C0B0 (30-357, looked up): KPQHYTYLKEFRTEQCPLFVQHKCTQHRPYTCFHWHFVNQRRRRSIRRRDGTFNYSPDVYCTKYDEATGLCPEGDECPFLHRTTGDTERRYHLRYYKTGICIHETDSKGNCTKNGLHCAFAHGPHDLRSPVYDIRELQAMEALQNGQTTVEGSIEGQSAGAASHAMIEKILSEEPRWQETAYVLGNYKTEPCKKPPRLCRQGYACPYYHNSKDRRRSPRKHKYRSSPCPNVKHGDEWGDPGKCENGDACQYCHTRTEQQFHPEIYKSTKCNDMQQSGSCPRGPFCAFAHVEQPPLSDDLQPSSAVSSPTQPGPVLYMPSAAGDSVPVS
# Method: RNA Bind-n-Seq
# Molecule type: RNA
# Medium: in vitro
# Concentration: 100 nM
# Notes: RNA with constant flanks, vertebrate orthologous sites, ends assumed
# Reference: input RNA pool
# Direction: higher = stronger binding
# All sequences stand within: GGGAGUUCUACAGUCCGACGAUC … CAACAGAGGAUUGAGCAUCA
Sequence,bound/input enrichment [ratio]
AAAUUUAUUUUAUGCCCUGGACUCCCUACCGCACUGAUACUUUAAUUGAAUUUGCUUCUUUAGAGGAUUUCCAAAACAGUCGCCAAACAACAACAUACAAACUACCAAACCGAGUAGAUG,1.08
UGUGAGGGUCUACUGACCACUCACUGUUAAUGUCUGGUAUCUGUAAACACCUUUUGUUCUUAGUCUUUUUCUUGUAUAAUUGAUGUUCUUUAAAAUUGUUAAUGUAUAACAGGGCUUAUG,1.82
UGCUGUUAAUGCACUGUAUACCAGGCAUUGUCUGAACUUAGUGUAAUCUAGGAGAUUUUAUAGUUUUAUUUUAAUGAAGUACGGAUUGAAGCAAAGCUGUUAGGAAAAUGUAGUCUUUUA,2.07
UAUCUUUAGGAUGAAGCUCUUACACCAAGUGUCACGAGUCUGGAGAACAGAUGGGUUGAGUAGUUGUUCUUAUAAAUUAGUAUCUGUGGAACACAAUCCUUUAUAUAUCAACAUCACAGU,0.907
UGUCUUGGUUUGGGGUAGAGGGGAGGGAGGGGCAGGACAGUGUGGAAUCUCUAGGGUGUAUGGGUAGAUAGGCUGCACGGUUAGUUCUAAUUGGGCCUUUAUGUUAAAAACCUCUGGGGG,0.879
CAUUGUAUCCUGCUGUAUAAUAAACAUUCUUACGCAUUUAUCAAAUGUUGAUAAAAUGUUAGCCCUUAACCACUUUUAUAUGUUUUAAAUUUUUGAAAUUCAAGUGUAUCUUCCAUAACA,0.624
AUGGUGGUUGUACAUUAUAGUUUCAUUUAGAAAAUAUAAAAAUUCAUUUUGUUUUGAAGUUAGGUAUUAAACUGGAAUAGUUAUGAUACCCCUGAGAGUGGGGACAGUUGUGCCCUUACC,2.67
AUACCUCCUGAACUUCUAGCUUUUCAGUUGUGGCUAUUUUAGAUACUGGUUUCUUUUCUUUAGAAUUUUCCCAGUUUCCUACCUUCUCUUUUCCCUGUUCCCAAGGUUUGACUCAUGGAU,0.945
ACUGUUGUUAAGCGCUGUGUUCCAGACCGUGUCUGACUUAGCGUCACCUAGGCGACCUUCUAGUCCCAUUCGGAUGAGCUCGGGUUGAUAGAGUGCAGGGGAGCGCCACCUCGUAGCCGC,0.491
GAAAGUCCCCAUUGUCACUGAGAACCACCAAAUCUGACUUUUACAUUUGGUCUCAGAAUUUAGGUUCCUGCCCUGUUGGGUUUUUUUUUUUUUUUAAACAGUUUUCAAAAGUUCUUAAAG,1.44
GCAUGAGCAUCUGCAUUAGCUCUGAAGACUUCUGCCCUCGGCUCCUCAUACAUUUAAUCACAUUUACACACCAAUUUUAUAAAAAUAGCAGUGUAGAUUCCAAGGGACUCUGAGCCUCCA,0.356

# Block 3
# Target: CCNA1, cyclin fold, Cln2 fusion (human)
# Method: yeast growth competition, sequencing
# Medium: yeast
# Notes: weak parent motif
# Reference: not given
# Direction: higher = stronger binding
# Starting sequence: CDKN1C docking peptide (human); TSACRSLFGPVDH
Substitution,normalised enrichment score
G9A,0.5
S2A,0.354
R5A,0.102
V11A,0.477
C4A,0.262
R5K F8L,-0.0261
D12A,0.309

# Block 4
# Target: Sal-like protein 4, full length isoform B (SALL4, Homo sapiens, UniProt Q9UJQ4-2, residues 1-616)
# Method: universal PBM
# Molecule type: double-stranded DNA, one strand shown
# Medium: in vitro
# Concentration: not given
# Notes: 8-mer, flanks averaged, mean of replicates
# Direction: higher = stronger binding
Sequence,E-score
GGGCTGAC,-0.221
GAATCAGA,-0.0108
ACTCGGAC,-0.126
ACATGCGA,0.0638
AGCCATGC,-0.0673
GAGTGTAC,0.012
AGGAAATG,0.0422
GTTAATCA,0.275
AACGGGCT,-0.205
GCTCCGAA,-0.0107
GGAGCAGA,-0.0928
AGATCGGC,-0.277
GTCTGTGA,-0.0678
AAGTGGAC,-0.0886
CTGAATAA,0.178
GTGCATAA,0.239
AGCATGAA,0.0561
TCAGTAGA,0.0862
AGATTGCA,0.13

# Repeated from above (block 4):
Sequence,E-score
GTTAATCA,0.275
AGCATGAA,0.0561
AGATCGGC,-0.277
TCAGTAGA,0.0862
GAATCAGA,-0.0108
GGGCTGAC,-0.221
AGCCATGC,-0.0673
